Results pooled from the literature.
Lines come from different studies, so protocols differ. Values joined by “and” are separate records of one study, mostly repeats; a detail may differ. ± marks the error that the study gave.
Cell line: Vero

| Compound | assay | conditions | quantity | value |
| --- | --- | --- | --- | --- |
| CN[C@@H]1[C@H](O)[C@H](NC)[C@H]2O[C@]3(O)[C@H](O[C@@H]2[C@H]1O)O[C@H](C)C[C@]3(O)CNCc1ccc(F)cc1 | – | – | IC50 | > 100 µg/mL |
| CC(=O)O[C@@H]1[C@@H](OC(C)=O)[C@H](Sc2sc(C(=O)c3ccc(C)cc3)c(N)c2-c2nc3ccccc3s2)OC[C@H]1OC(C)=O | cytotoxicity | 72 h | maximum non-toxic concentration | 90 µg/mL |
| COc1ccc(C(=O)CSc2nnc(COCCn3c([N+](=O)[O-])cnc3C)o2)cc1F | cell growth or viability, MTT | 6 µM, 48 h | viability | 107% |
| CCOC(=O)c1cc(-c2nc3ccccc3s2)c(=O)n(NS(=O)(=O)c2ccccc2)c1N | trypan blue | 72 h | maximum non-toxic concentration | 110 µg/mL |
| CN[C@@H]1[C@H](O)[C@H](NC)[C@H]2O[C@]3(O)[C@H](O[C@@H]2[C@H]1O)O[C@H](C)C[C@@]3(O)CNCc1ccc(Cl)cc1 | – | – | IC50 | > 100 µg/mL |
| CCCCCCSc1ccc(SCCCCCC)c(O)c(=O)c1O | MTS | up to 100 µM | cytotoxicity | not toxic |
| CC(=O)OC[C@H]1O[C@@H](Sc2sc(C(=O)c3ccc(Cl)cc3)c(N)c2-c2nc3ccccc3s2)[C@H](OC(C)=O)[C@@H](OC(C)=O)[C@H]1OC(C)=O | cytotoxicity | 72 h | maximum non-toxic concentration | 90 µg/mL |
| CC(=O)OCC1OC(n2cc(C=CBr)c(=O)[nH]c2=O)C2CC=CCC12 (mixture of isomers) | cytotoxicity | 3 days | IC50 | > 100 µM |
| O=C(C=CC(Cc1ccccc1)Nc1ccnc2cc(Cl)ccc12)NCC(=O)N1CCNCC1 (stereo not drawn) | MTT | concentration not given | cytotoxicity | not toxic |
| Nc1c(C(=O)c2ccc(Cl)cc2)sc(S)c1-c1nc2ccccc2s1 | cytotoxicity | 72 h | maximum non-toxic concentration | 70 µg/mL and 80 µg/mL |
| Cc1ccc(O)c(C=NNC(=N)NO)n1 | cell growth, Coulter counter | 2 days | TC50 | 389 µM |
| O=c1c(-c2nc3ccccc3s2)cc2c(n1NS(=O)(=O)c1ccccc1)CCCCCC2 | trypan blue | 72 h | maximum non-toxic concentration | 140 µg/mL |
| CC(=O)OC[C@H]1O[C@@H](Sc2sc(C(=O)c3ccc(C)cc3)c(N)c2-c2nc3ccccc3s2)[C@H](OC(C)=O)[C@@H](OC(C)=O)[C@H]1OC(C)=O | cytotoxicity | 72 h | maximum non-toxic concentration | 100 µg/mL |
| CC(=O)OCC1OC(n2cnc3c(Cl)nc(Cl)nc32)C2CC=CCC12 (mixture of isomers) | cytotoxicity | 3 days | IC50 | 18.9 µM |
| NNC(=O)/C=C/c1ccc(N)cc1 | cytotoxicity, MTT | – | IC50 | 242 ± 0.02 µg/mL |
| CC(=O)O[C@@H]1[C@@H](OC(C)=O)[C@H](Sc2sc(C(=O)c3ccc(Br)cc3)c(N)c2-c2nc3ccccc3s2)OC[C@H]1OC(C)=O | cytotoxicity | 72 h | maximum non-toxic concentration | 100 µg/mL |
| Nc1nc(Cl)nc2c1ncn2C1OC(CO)C2CC=CCC21 (mixture of isomers) | cytotoxicity | 3 days | IC50 | > 100 µM |
| Cc1ncc([N+](=O)[O-])n1CCOCc1nnc(SCC(=O)c2ccc(Br)cc2)o1 | cell growth or viability, MTT | 6 µM, 48 h | viability | 104% |
| Nc1ccn(C2OC(CO)C3CC=CCC32)c(=O)n1 (mixture of isomers) | cytotoxicity | 3 days | IC50 | > 100 µM |
| Cc1ncc([N+](=O)[O-])n1CCOCc1nnc(SCC(=O)c2ccc([N+](=O)[O-])cc2)o1 | cell growth or viability, MTT | 6 µM, 48 h | viability | 104% |
| CC(=O)OC[C@H]1O[C@@H](Sc2sc(C(=O)c3ccc(Br)cc3)c(N)c2-c2nc3ccccc3s2)[C@H](OC(C)=O)[C@@H](OC(C)=O)[C@H]1OC(C)=O | cytotoxicity | 72 h | maximum non-toxic concentration | 100 µg/mL |
| O=C1C=C(c2coc3cc(O)cc(O)c3c2=O)C(=O)C([N+](=O)[O-])=C1O | cytotoxicity, MTT | 72 h, 10% fetal bovine serum | IC50 | 24.6 ± 3.79 µM |
| COc1ccc(Nc2c(C#N)cnc3ccc(Cl)cc23)cc1 | cell growth or viability, resazurin | 72 h | CC50 | > 100 µM |
| CCOC(=O)c1cc(-c2nc3ccccc3s2)c(=O)n(NS(=O)(=O)c2ccc(Cl)cc2)c1N | trypan blue | 72 h | maximum non-toxic concentration | 130 µg/mL |
| Nc1c(C(=O)c2ccc(Br)cc2)sc(S)c1-c1nc2ccccc2s1 | cytotoxicity | 72 h | maximum non-toxic concentration | 100 µg/mL |
| CN[C@@H]1[C@H](O)[C@H](NC)[C@H]2O[C@]3(O)[C@H](O[C@@H]2[C@H]1O)O[C@H](C)C[C@]3(O)CNCc1ccc(OC(F)(F)F)cc1 | – | – | IC50 | > 100 µg/mL |
| COc1cc(C2COc3cc(O)cc(O)c3C2=NO)c(OC)cc1O (stereo not drawn) | cytotoxicity, MTT | 72 h, 10% fetal bovine serum | IC50 | 104 ± 25 µM |

Repeated from above:
| Compound | assay | conditions | quantity | value |
| --- | --- | --- | --- | --- |
| CC(=O)O[C@@H]1[C@@H](OC(C)=O)[C@H](Sc2sc(C(=O)c3ccc(C)cc3)c(N)c2-c2nc3ccccc3s2)OC[C@H]1OC(C)=O | cytotoxicity | 72 h | maximum non-toxic concentration | 90 µg/mL |
| COc1ccc(C(=O)CSc2nnc(COCCn3c([N+](=O)[O-])cnc3C)o2)cc1F | cell growth or viability, MTT | 6 µM, 48 h | viability | 107% |
